Published values gathered from unrelated publications.
Protocols differ between the studies behind these lines. Several values in a cell are separate wells, animals, samples, runs or records. Numbers after ± are the reported error.

Substance | test | test system | setting | how to read | endpoint | value
CSCC[C@@H]1NC(=O)[C@H](CC(=O)O)NC(=O)CNC(=O)[C@H](CCCNC(=N)N)NC(=O)[C@H](C)NC(=O)[C@H](CCC(=O)O)NC(=O)[C@H](CCCNC(=N)N)NC(=O)[C@@H]2CSSC[C@@H]3NC(=O)[C@H](CO)NC(=O)[C@H]([C@@H](C)O)NC(=O)[C@@H]4CCCN4C(=O)[C@H](C)NC(=O)[C@H](Cc4c[nH]c5ccccc45)NC(=O)[C@H](CC(=O)O)NC(=O)CNC(=O)[C@H](CCCNC(=N)N)NC(=O)CNC(=O)[C@H](CCC(N)=O)NC(=O)[C@@H]4CCCN4C(=O)[C@@H](NC(=O)CNC(=O)C(C)F)CSSC[C@H](NC(=O)CNC(=O)[C@H](C)NC(=O)[C@H](CC(C)C)NC(=O)[C@H](CSSC[C@@H](C(=O)NCC(N)=O)NC(=O)[C@H]([C@@H](C)O)NC(=O)[C@H](CCCNC(=N)N)NC(=O)[C@@H]4CCCN4C1=O)NC(=O)[C@H](CC(=O)O)NC(=O)[C@H](CO)NC(=O)[C@H](CC(=O)O)NC(=O)[C@H](CCC(N)=O)NC(=O)[C@H](CO)NC3=O)C(=O)N[C@@H](C(C)C)C(=O)N2 (some centres unmarked) [fluorine-18 labelled] | – | nude mice U-87 MG xenograft, stomach | intravenous, 1 h | – | tissue uptake | 1.07 ± 0.02 %ID/g
C[C@H]1CNCCc2ccc(Cl)cc21 | – | male Sprague-Dawley rat, plasma | subcutaneous, 3 mg/kg, single dose | – | Cmax | 106 ng/mL
CN[C@H](CC(C)C)C(=O)N[C@H]1C(=O)N[C@@H](CC(N)=O)C(=O)N[C@H]2C(=O)N[C@H]3C(=O)N[C@H](C(=O)N[C@H](C(=O)O)c4cc(O)cc(O)c4-c4cc3ccc4O)[C@H](O)c3ccc(c(Cl)c3)Oc3cc2cc(c3O[C@@H]2O[C@H](CO)[C@@H](O)[C@H](O)[C@H]2O[C@H]2C[C@](C)(N)[C@H](O)[C@H](C)O2)Oc2ccc(cc2Cl)[C@H]1O | iohexol clearance | male Sprague-Dawley rats | dose not given, day 1, bolus vs humanized infusion | relative to: humanized infusion | GFR difference | 0.04 mL/min/100 g
CSc1nc2cc(Cl)c(Oc3cccc(Cl)c3Cl)cc2[nH]1 | – | human liver mitochondrial preparation | 1 µM, 30 min, 0.5 mg/mL protein | – | percent metabolized | 0%
CC(C)C(=O)OC[C@H]1O[C@@H](n2ccc(NO)nc2=O)[C@H](O)[C@@H]1O | – | rat blood dialysate | 5 ng/mL, 6 h, 10 °C, autosampler stability, added: NHC 25 ng/mL | – | remaining compound | 98.6 ± 4.35%
N=C(N)NCCC[C@H](NC(=O)CNC(=O)c1ccc2c(c1)C(=O)OC21c2ccc(O)cc2Oc2cc(O)ccc21)C(=O)N[C@@H](CCCCN)C(=O)N[C@@H](CCCCN)C(=O)N[C@@H](CCCNC(=N)N)C(=O)N[C@@H](CCCNC(=N)N)C(=O)N[C@@H](CCC(N)=O)C(=O)N[C@@H](CCCNC(=N)N)C(=O)N[C@@H](CCCNC(=N)N)C(=O)N[C@@H](CCCNC(=N)N)C(=O)N1CCC[C@H]1C(=O)N1CCC[C@H]1C(=O)N[C@@H](CCC(N)=O)C(=O)O | no effect | Sprague-Dawley rat, excised skin | 50 µmol/L, 37 °C, FAM-labelled CPP conjugate | relative to: free FAM | apparent skin permeability | no effect
CC[C@H](C)[C@H](NC(=O)[C@H](CC(C)C)NC(=O)[C@H](Cc1c[nH]c2ccccc12)NC(=O)[C@H](CCC(N)=O)NC(=O)[C@@H](NC(=O)[C@H](Cc1ccccc1)NC(=O)[C@H](C)NC(=O)[C@H](CCCCNC(=O)COCCOCCNC(=O)COCCOCCNC(=O)CC[C@H](NC(=O)CCCCCCCCCCCCCCCCCCC(=O)O)C(=O)O)NC(=O)[C@H](CCC(N)=O)NC(=O)[C@H](C)NC(=O)[C@@H](NC(=O)[C@H](CCCCN)NC(=O)[C@H](CC(=O)O)NC(=O)[C@H](CC(C)C)NC(=O)C(C)(C)NC(=O)[C@@H](NC(=O)[C@H](CO)NC(=O)[C@H](Cc1ccc(O)cc1)NC(=O)[C@H](CC(=O)O)NC(=O)[C@H](CO)NC(=O)[C@@H](NC(=O)[C@H](Cc1ccccc1)NC(=O)[C@@H](NC(=O)CNC(=O)[C@H](CCC(=O)O)NC(=O)C(C)(C)NC(=O)[C@@H](N)Cc1ccc(O)cc1)[C@@H](C)O)[C@@H](C)O)[C@@H](C)CC)[C@@H](C)CC)C(C)C)C(=O)N[C@@H](C)C(=O)NCC(=O)NCC(=O)N1CCC[C@H]1C(=O)N[C@@H](CO)C(=O)N[C@@H](CO)C(=O)NCC(=O)N[C@@H](C)C(=O)N1CCC[C@H]1C(=O)N1CCC[C@H]1C(=O)N1CCC[C@H]1C(=O)N[C@@H](CO)C(N)=O | – | human, end-stage renal disease, plasma | subcutaneous, 5 mg single dose, geometric mean | – | CL/F | 0.892 mL/min
icatibant | – | mouse | intraplantar, 5 µL, 10 mg/mL, 15 min | – | paw thickness increase | 40.7 ± 2.1%
CC(=O)[O][Pt]([NH2])([Cl])([Cl])([NH]C1CCCCC1)[O]C(C)=O | – | rhesus monkey, cerebrospinal fluid, fourth ventricle | intravenous infusion over 1 h, 6 mg/kg | relative to: start of infusion | Tmax | 1.3 h and 1.5 h and 2.1 h
CN[C@@](C)(C[18F])C(=O)O | – | SCID mouse MDA-MB-468 xenograft, heart | 120 min, post injection | – | tissue uptake | 3.9 ± 0.5 %ID/g
CC[C@@]1(O)C(=O)OCc2c1cc1n(c2=O)Cc2cc3c(CN(C)C)c(O)ccc3nc2-1 | – | human patients | oral, 2.5 mg daily, 5 days, cycle 1 day 5, median, alone | – | Tmax | 1.97 h
C=C(C)[C@@H]1CCC(C)=C[C@H]1c1c(O)cc(CCCCC)cc1O | – | human, plasma | oral, 1.5 to 20 mg, low dose | – | average Cmax | 2.8 ± 2.2 ng/mL
Clc1ccc(-c2c(Cl)ccc(Cl)c2Cl)c(Cl)c1Cl | – | rat liver microsomes | 50 µM, 30 min, remaining parent PCB | – | enantiomeric fraction | 0.39
C#CCN(C)CCCCCCOCc1ccc(CN(C)c2c3c(nc4ccccc24)CCCC3)cc1 | – | male Sprague-Dawley rat, plasma | intraperitoneal, 10 mg/kg | – | bioavailability | ≤ 90%
COc1ccc(C[C@@H]2NC(=O)[C@H]([C@@H](C)O)NC(=O)[C@@H]3[C@@H]4CCN3C(=O)[C@@H]3Cc5cn(c6ccc(F)cc56)CCCCCCN(Cc5ccc(cc5)CCNC(=O)[C@]5(C)CCCN5C2=O)C(=O)CCC(=O)N[C@@H](C)C(=O)N[C@H](CNC(=O)CCCCC[N+](C)(C)C)C(=O)N[C@@H](Cc2cccc(c2)CNC(=O)CO4)C(=O)N3)cc1 | – | fasted healthy humans, plasma | oral, 10 mg single dose, with 1800 mg Labrasol, geometric mean | – | CL/F | 416 mL/min
CC[C@H](C)[C@H](NC(=O)[C@H](CC(C)C)NC(=O)[C@H](Cc1c[nH]c2ccccc12)NC(=O)[C@H](CCC(N)=O)NC(=O)[C@@H](NC(=O)[C@H](Cc1ccccc1)NC(=O)[C@H](C)NC(=O)[C@H](CCCCNC(=O)COCCOCCNC(=O)COCCOCCNC(=O)CC[C@H](NC(=O)CCCCCCCCCCCCCCCCCCC(=O)O)C(=O)O)NC(=O)[C@H](CCC(N)=O)NC(=O)[C@H](C)NC(=O)[C@@H](NC(=O)[C@H](CCCCN)NC(=O)[C@H](CC(=O)O)NC(=O)[C@H](CC(C)C)NC(=O)C(C)(C)NC(=O)[C@@H](NC(=O)[C@H](CO)NC(=O)[C@H](Cc1ccc(O)cc1)NC(=O)[C@H](CC(=O)O)NC(=O)[C@H](CO)NC(=O)[C@@H](NC(=O)[C@H](Cc1ccccc1)NC(=O)[C@@H](NC(=O)CNC(=O)[C@H](CCC(=O)O)NC(=O)C(C)(C)NC(=O)[C@@H](N)Cc1ccc(O)cc1)[C@@H](C)O)[C@@H](C)O)[C@@H](C)CC)[C@@H](C)CC)C(C)C)C(=O)N[C@@H](C)C(=O)NCC(=O)NCC(=O)N1CCC[C@H]1C(=O)N[C@@H](CO)C(=O)N[C@@H](CO)C(=O)NCC(=O)N[C@@H](C)C(=O)N1CCC[C@H]1C(=O)N1CCC[C@H]1C(=O)N1CCC[C@H]1C(=O)N[C@@H](CO)C(N)=O | – | human, mild hepatic impairment | subcutaneous, 5 mg | relative to: normal hepatic function | tmax difference | 0 h
CC(C)C[C@@H]1NC(=O)[C@@H]2CSSC[C@@H](C(=O)NCC(N)=O)NC(=O)[C@H](Cc3ccccc3)NC(=O)CNC(=O)[C@H](CC(N)=O)NC(=O)[C@@H]3CCCN3C(=O)CNC(=O)[C@@H]3CSSC[C@H](NC(=O)[C@H](CO)NC(=O)[C@H]([C@@H](C)O)NC(=O)[C@@H]4CCCN4C(=O)[C@H](C)NC(=O)[C@H](Cc4c[nH]c5ccccc45)NC(=O)[C@H](CC(=O)O)NC(=O)CNC(=O)[C@H](CCCNC(=N)N)NC(=O)CNC(=O)[C@H](CCC(N)=O)NC(=O)[C@@H]4CCCN4C(=O)[C@@H](NC(=O)CNC(=O)c4ccc(F)cc4)CSSC[C@H](NC(=O)CNC(=O)[C@H](C)NC1=O)C(=O)N[C@@H](C(C)C)C(=O)N3)C(=O)N[C@@H](CO)C(=O)N[C@@H](CCC(N)=O)C(=O)N[C@@H](CC(=O)O)C(=O)N[C@@H](CO)C(=O)N[C@@H](CC(=O)O)C(=O)N2 [fluorine-18 labelled] | dynamic microPET | nude mouse, U-87 MG xenograft, tumour | intravenous, 3.7 MBq, 5 min | – | maximum tumour uptake | 3.5 %ID/g
[123I]c1cncc(OC[C@@H]2CCN2)c1 | SPECT | human, parietal lobe | intravenous bolus, 2.1 mCi | relative to: tissue over plasma | tissue/plasma ratio | 10.8
O[C@H]1CCCN[C@@H]1CCCn1cnc2c(Cl)c(Cl)ccc21 | – | healthy human volunteers, plasma | oral, 100 mg, day 1, multiple ascending dose | – | half-life | 3.81 h
CC[C@H](C)[C@H](NC(=O)[C@@H](N)CCCNC(=N)N)C(=O)N[C@H](C(=O)N1CCC[C@H]1C(=O)N[C@@H](C)C(N)=O)C(C)C | – | healthy volunteers, both sexes, plasma | intravenous infusion, 4.5 mg/kg daily, day 7, multiple ascending dose | – | Cmax | 16600 ± 10200 ng/mL
Cc1c(P(=S)(c2ccccc2)c2ccccc2)n2ccccc2[n+]1C/C=C/c1ccccc1 | – | mouse, brain | intraperitoneal, 10 mg/kg, 2 h | – | concentration | 27 ng/g
Oc1ccc2ccc3cccc4ccc1c2c34 | HPLC-fluorescence | Wistar rat, male, stomach | oral, 4 mg/kg PY, 24 h | – | tissue concentration | 871 ± 64 ng/g
CNC(C)Cc1ccc2c(c1)OCO2 (racemic) | visual analog scale, refers to: Confident | human | oral, 1.5 mg/kg, mean over session, unit not given | relative to: pre-dose baseline | mood rating | 10.1
C#Cc1cccc2c1[nH]c1cnc(C(=O)OC(C)(C)C)cc12 | – | Wistar rat, brain | intraperitoneal, 10 mg/kg daily for 4 days, 20 min after last dose, added: diazepam 2 mg/kg | – | brain concentration | 72.3 ± 16.3 nM
C#C[C@]1(CO)O[C@@H](n2cnc3c(N)nc(F)nc32)C[C@@H]1O | – | healthy adults | oral, 2.25 mg once daily, alone or coadministered, added: doravirine 100 mg once daily | – | participants with drug-related adverse events | 10%
CC(=O)N[C@H](CCCCNC(=O)C(C)F)C(=O)N[C@@H](CS)C(=O)N[C@@H](CS)C(=O)N[C@@H](CCC(=O)O)C(=O)N[C@@H](Cc1c[nH]cn1)C(=O)N[C@H](Cc1ccccc1)C(=O)N[C@@H](CCCNC(=N)N)C(=O)N[C@@H](Cc1c[nH]c2ccccc12)C(=O)N[C@@H](CS)C(=O)N[C@@H](CCCNC(=N)N)C(=O)N1CCC[C@H]1C(=O)N[C@H](C(N)=O)C(C)C (some centres unmarked) [fluorine-18 labelled] | – | nude mice, A375M xenograft, bone | intravenous, 2 h | – | tissue uptake | 0.23 ± 0.11 %ID/g

A few entries again:
Substance | test | test system | setting | how to read | endpoint | value
CC(=O)[O][Pt]([NH2])([Cl])([Cl])([NH]C1CCCCC1)[O]C(C)=O | – | rhesus monkey, cerebrospinal fluid, fourth ventricle | intravenous infusion over 1 h, 6 mg/kg | relative to: start of infusion | Tmax | 1.3 h and 1.5 h and 2.1 h
CSc1nc2cc(Cl)c(Oc3cccc(Cl)c3Cl)cc2[nH]1 | – | human liver mitochondrial preparation | 1 µM, 30 min, 0.5 mg/mL protein | – | percent metabolized | 0%
CC[C@H](C)[C@H](NC(=O)[C@H](CC(C)C)NC(=O)[C@H](Cc1c[nH]c2ccccc12)NC(=O)[C@H](CCC(N)=O)NC(=O)[C@@H](NC(=O)[C@H](Cc1ccccc1)NC(=O)[C@H](C)NC(=O)[C@H](CCCCNC(=O)COCCOCCNC(=O)COCCOCCNC(=O)CC[C@H](NC(=O)CCCCCCCCCCCCCCCCCCC(=O)O)C(=O)O)NC(=O)[C@H](CCC(N)=O)NC(=O)[C@H](C)NC(=O)[C@@H](NC(=O)[C@H](CCCCN)NC(=O)[C@H](CC(=O)O)NC(=O)[C@H](CC(C)C)NC(=O)C(C)(C)NC(=O)[C@@H](NC(=O)[C@H](CO)NC(=O)[C@H](Cc1ccc(O)cc1)NC(=O)[C@H](CC(=O)O)NC(=O)[C@H](CO)NC(=O)[C@@H](NC(=O)[C@H](Cc1ccccc1)NC(=O)[C@@H](NC(=O)CNC(=O)[C@H](CCC(=O)O)NC(=O)C(C)(C)NC(=O)[C@@H](N)Cc1ccc(O)cc1)[C@@H](C)O)[C@@H](C)O)[C@@H](C)CC)[C@@H](C)CC)C(C)C)C(=O)N[C@@H](C)C(=O)NCC(=O)NCC(=O)N1CCC[C@H]1C(=O)N[C@@H](CO)C(=O)N[C@@H](CO)C(=O)NCC(=O)N[C@@H](C)C(=O)N1CCC[C@H]1C(=O)N1CCC[C@H]1C(=O)N1CCC[C@H]1C(=O)N[C@@H](CO)C(N)=O | – | human, end-stage renal disease, plasma | subcutaneous, 5 mg single dose, geometric mean | – | CL/F | 0.892 mL/min
